{"data": "Results collected from several papers", "note": "Lines come from different studies, so protocols differ. Values joined by “and” are separate records of one study, mostly repeats; a detail may differ. ± marks the error that the study gave."}
{"Structure (SMILES)": "CCCCCCCCCC(=O)NCCCC[C@H](NC(=O)CCCCCCCCC)C(=O)N[C@@H](CCCCNC(=O)CCCCCCCCC)C(=O)NCC(=O)NCC(=O)NCC(=O)N[C@@H](CS)C(=O)N[C@@H](CCCNC(=N)N)C(=O)N[C@@H](CCCCN)C(=O)N1CCC[C@H]1C(=O)N[C@@H](CS)C(=O)N[C@@H](CCCNC(=N)N)C(=O)N[C@@H](CCCCN)C(=O)N1CCC[C@H]1C(N)=O", "organism": "Candida albicans", "test": "broth microdilution", "system": "SP 3902, RPMI-1640", "setting": "48 h, 30 °C", "quantity": "MIC", "value": "32 µM"}
{"Structure (SMILES)": "CC1(C)Cc2sc(NC(=O)Cc3ccc(S(N)(=O)=O)cc3)c(C#N)c2CN1CC1CCCCC1", "organism": "Dengue virus 2", "test": "viral replication", "system": "P15-S10 passaged with DMSO", "quantity": "EC50", "value": "14.2 nM and 13.8 nM"}
{"Structure (SMILES)": "[2H]C([2H])(c1cc(F)c(F)cc1F)n1c(=O)n(Cc2ncn(C)n2)c(=O)[nH]/c1=N\\c1cc2cn(C)nc2cc1Cl", "organism": "Betacoronavirus 1", "test": "viral replication, qPCR", "system": "OC43, human", "quantity": "IC50", "value": "130 nM"}
{"Structure (SMILES)": "CN(C)c1nc(NCc2c(F)cccc2C(F)(F)F)c(/N=N/c2ccc(Cl)cc2)c(N(C)C)n1", "organism": "Plutella xylostella", "test": "leaf dipping", "setting": "200 mg/L, 96 h", "quantity": "mortality", "value": "70 ± 6.2%"}
{"Structure (SMILES)": "C[C@H](NC(=O)Cc1cc(F)cc(F)c1)C(=O)N[C@@H]1C(=O)N(C)c2ccccc2-c2ccccc21", "organism": "dengue virus 2", "test": "viral replication", "system": "Huh-7.5.1 overexpressing SPP", "how to read": "baseline: SPP over control", "quantity": "EC50 fold increase", "value": "> 10 fold"}
{"Structure (SMILES)": "CCOC(=O)C1(Cc2ccc(C#N)cc2F)Oc2cc(F)ccc2N(Cc2ccc(C#N)cc2F)C1=O (stereo not drawn)", "organism": "Arabidopsis thaliana", "test": "stem length, petri dish germination", "system": "Col-0, 1/2 MS medium", "setting": "200 µg/mL, 7 days, 22 °C, dark", "quantity": "inhibition", "value": "42.9%"}
{"Structure (SMILES)": "CN(C)c1nc(NCc2ccc(F)c(C(F)(F)F)c2)c(/N=N/c2ccc(Cl)cc2)c(N(C)C)n1", "organism": "Plutella xylostella", "test": "leaf dipping", "setting": "200 mg/L, 96 h", "quantity": "mortality", "value": "46.7 ± 5.8%"}
{"Structure (SMILES)": "CCOC(=O)C1(CC)Oc2cc(F)ccc2N(CC)C1=O (stereo not drawn)", "organism": "Arabidopsis thaliana", "test": "root length, petri dish germination", "system": "Col-0, 1/2 MS medium", "setting": "50 µg/mL, 7 days, 22 °C, dark", "quantity": "inhibition", "value": "55.3%"}
{"Structure (SMILES)": "O=S(=O)(c1ccc(-c2ccc3ncnc(Nc4ccc(OCc5cccc(F)c5)c(Cl)c4)c3c2)cc1)N1CCCCC1", "organism": "Plasmodium falciparum", "test": "parasite growth, SYBR Green fluorescence", "system": "W2, drug-resistant", "quantity": "EC50", "value": "330 nM"}
{"Structure (SMILES)": "COc1ccc(C2=[N+]([O-])c3ccccc3N3CCCN=C23)cc1", "organism": "Fusobacterium nucleatum", "quantity": "MIC90", "value": "2 µg/mL"}
{"Structure (SMILES)": "CCOC(=O)C1(Cc2ccc(C)cc2)Oc2cc(F)ccc2N(Cc2ccc(C)cc2)C1=O (stereo not drawn)", "organism": "Arabidopsis thaliana", "test": "root length, petri dish germination", "system": "Col-0, 1/2 MS medium", "setting": "200 µg/mL, 7 days, 22 °C, dark", "quantity": "inhibition", "value": "56.1%"}
{"Structure (SMILES)": "COc1ccc2nc3cc(Cl)ccc3c(NCCNC(C)=C3C(=O)C=C4Oc5c(C(C)=O)c(O)c(C)c(O)c5C4(C)C3=O)c2c1 (stereo not drawn)", "organism": "Plasmodium berghei", "system": "ANKA GFP, mouse NMRI", "setting": "intraperitoneal, 4 × 50 mg/kg", "quantity": "mean survival time", "value": "7 days"}
{"Structure (SMILES)": "O=S(=O)(c1ccc(-c2ccc3ncnc(Nc4ccc(OCc5ccc(C(F)(F)F)c(F)c5)c(Cl)c4)c3c2)cc1)N1CCOCC1", "organism": "Plasmodium falciparum", "test": "parasite growth, SYBR Green fluorescence", "system": "C235 (TM91C235), drug-resistant", "quantity": "EC50", "value": "640 nM"}
{"Structure (SMILES)": "CCCCCCCC(=O)NCCCC[C@H](NC(=O)CCCCCCC)C(=O)N[C@@H](CCCCNC(=O)CCCCCCC)C(=O)NCC(=O)NCC(=O)NCC(=O)N[C@@H](CS)C(=O)N[C@@H](CCCNC(=N)N)C(=O)N[C@@H](CCCCN)C(=O)N1CCC[C@H]1C(=O)N[C@@H](CS)C(=O)N[C@@H](CCCNC(=N)N)C(=O)N[C@@H](CCCCN)C(=O)N1CCC[C@H]1C(=O)N[C@@H](CS)C(=O)N[C@@H](CCCNC(=N)N)C(=O)N[C@@H](CCCCN)C(=O)N1CCC[C@H]1C(N)=O", "organism": "Candida albicans", "test": "broth microdilution", "system": "SP 3902, RPMI-1640", "setting": "48 h, 30 °C", "quantity": "MIC", "value": "16 µM"}
{"Structure (SMILES)": "CC(C)(C)OC(=O)N[C@@H](Cc1ccc(O)cc1)C(=O)N1CC[C@@H]2O[C@@H]3c4ccccc4OC(C)(C)[C@H]3C[C@@H]2C1", "organism": "HIV-1 subtype C", "test": "viral replication", "setting": "96 h", "quantity": "IC50", "value": "46100 nM"}
{"Structure (SMILES)": "CCOC(=O)C1(Cc2ccccc2)Oc2cc(C)ccc2N(Cc2ccccc2)C1=O (stereo not drawn)", "organism": "Arabidopsis thaliana", "test": "stem length, petri dish germination", "system": "Col-0, 1/2 MS medium", "setting": "200 µg/mL, 7 days, 22 °C, dark", "quantity": "inhibition", "value": "100%"}
{"Structure (SMILES)": "O=C(O)C(Cl)Cl.OCCN(CCO)CCO", "organism": "Xanthium sibiricum", "setting": "15 mg/mL, 21 days, post-emergence, greenhouse", "quantity": "herbicidal inhibition", "value": "-50%"}
{"Structure (SMILES)": "CC(C)[C@H]1NC(=O)[C@H](Cc2ccccc2)NC(=O)[C@@H](C(C)C)NC(=O)[C@@H](C)NC(=O)[C@H](CO)NC(=O)[C@@H](Cc2c(-c3ccc(C4CCCCC4)cc3)[nH]c3ccccc23)NC(=O)[C@@H](CO)NC1=O", "organism": "Pseudomonas aeruginosa", "test": "broth dilution", "quantity": "MIC90", "value": "> 50 µM"}
{"Structure (SMILES)": "O=C1C(O)=C([C@H]2CC[C@H](c3ccc(Cl)cc3)CC2)C(=O)c2ccccc21", "organism": "Plasmodium falciparum", "test": "parasite growth", "system": "Dd2-NITD609", "quantity": "EC50", "value": "1.3 ± 0.2 nM"}
{"Structure (SMILES)": "CCOC(=O)C1(Cc2cc(F)cc(F)c2)Oc2cc(F)ccc2N(Cc2cc(F)cc(F)c2)C1=O (stereo not drawn)", "organism": "Arabidopsis thaliana", "test": "root length, petri dish germination", "system": "Col-0, 1/2 MS medium", "setting": "50 µg/mL, 7 days, 22 °C, dark", "quantity": "inhibition", "value": "21.9%"}
{"Structure (SMILES)": "Fc1cccc(COc2ccc(Nc3ncnc4ccc(-c5cccc(N6CCSCC6)c5)cc34)cc2Cl)c1", "organism": "Plasmodium falciparum", "test": "parasite growth, SYBR Green fluorescence", "system": "C235 (TM91C235), drug-resistant", "quantity": "EC50", "value": "780 nM"}
{"Structure (SMILES)": "CC(C)C[C@H](NC(=O)[C@H](CC(C)C)NC(=O)[C@H](CCCCN)NC(=O)[C@H](Cc1ccccc1)NC(=O)[C@@H](NC(=O)[C@H](CCCNC(=N)N)NC(=O)[C@@H](N)CCCCN)C(C)C)C(=O)N[C@@H](CCCCN)C(=O)N[C@@H](CCCNC(=N)N)C(=O)N[C@@H](Cc1ccc(O)cc1)C(=O)N[C@@H](Cc1c[nH]c2ccccc12)C(=O)N[C@@H](CCCNC(=N)N)C(=O)N[C@@H](CCC(N)=O)C(=O)N[C@@H](CC(C)C)C(=O)N[C@@H](CCCCN)C(=O)N[C@@H](CCCCN)C(=O)N1CCC[C@H]1C(=O)N[C@H](C(=O)N[C@@H](CCCNC(=N)N)C(=O)NCCOCCOCC(=O)O)C(C)C", "organism": "Pseudomonas aeruginosa and Staphylococcus aureus", "test": "confocal microscopy", "system": "mixed biofilm", "setting": "10 µM, 6 h, biofilm, pre-formed, 24 h", "quantity": "live/dead fluorescence reduction", "value": "95.2%"}
{"Structure (SMILES)": "CN(C(=O)c1ccn2ncc(-c3ccc(C(N)=O)cc3)c2c1)c1ccc(C#N)cn1", "organism": "Cryptosporidium parvum", "system": "UGA1 Nluc, IFN-gamma knockout C57BL/6 mice, faeces", "setting": "oral, 10 mg/kg daily, 264 h post infection, treatment days 11-17", "how to read": "higher means more parasites", "quantity": "faecal Nluc luminescence", "value": "21200 a.u. and 144000 a.u. and 17400 a.u. and 5910 a.u."}
{"Structure (SMILES)": "CC(=O)c1c(O)c(C)c(O)c2c1OC1=CC(=O)C(=C(C)NCCCC(=O)OC3OC4OC5(C)CCC6C(C)CCC(C3C)C46OO5)C(=O)C12C (stereo not drawn)", "organism": "Plasmodium berghei", "system": "ANKA GFP-transfected, NMRI mice", "setting": "oral, dose not given", "quantity": "delay of parasitaemia", "value": "29 days"}
{"Structure (SMILES)": "O=S(=O)(c1ccc(-c2ccc3ncnc(Nc4ccc(OCc5cccc(F)c5)c(Cl)c4)c3c2)cc1)N1CCNCC1", "organism": "Plasmodium falciparum", "test": "parasite growth, SYBR Green", "system": "D6", "setting": "blood stage", "quantity": "EC50", "value": "94 nM"}
{"Structure (SMILES)": "CCOC(=O)C1(Cc2cc(OC)cc(OC)c2)Oc2cc(F)ccc2N(Cc2cc(OC)cc(OC)c2)C1=O (stereo not drawn)", "organism": "Arabidopsis thaliana", "test": "stem length, petri dish germination", "system": "Col-0, 1/2 MS medium", "setting": "50 µg/mL, 7 days, 22 °C, dark", "quantity": "inhibition", "value": "26%"}
{"Structure (SMILES)": "OB(O)c1ccc(C(F)(F)F)s1", "organism": "Staphylococcus aureus", "test": "OD600", "system": "USA300 fphE::Tn transposon mutant", "setting": "100 µM", "how to read": "baseline: wild type", "quantity": "growth", "value": "29.2% and 46.1% and 58.6% and 52% and 43.5% and 46.6%"}
{"Structure (SMILES)": "CC[C@H](C)CCCCC(=O)N[C@@H](CCN)C(=O)N[C@H](C(=O)N[C@@H](CCN)C(=O)N[C@H]1CCNC(=O)[C@H]([C@@H](C)O)NC(=O)[C@H](CCN)NC(=O)[C@H](CCN)NC(=O)[C@H](CC(C)C)NC(=O)[C@@H](CC(C)C)NC(=O)[C@H](CCN)NC1=O)[C@@H](C)O", "organism": "Escherichia coli", "test": "daily serial passaging", "system": "ATCC 8739", "setting": "highest sub-MIC, 28 days", "how to read": "baseline: initial MIC", "quantity": "MIC fold change", "value": 2.21}
{"Structure (SMILES)": "[O-][N+]1=C(c2ccc(Cl)cc2)C2=NCCCN2c2ccccc21", "organism": "Fusobacterium nucleatum", "quantity": "MIC90", "value": "1 µg/mL"}
{"Structure (SMILES)": "CCOC(=O)C1(Cc2ccccc2F)Oc2cc(F)ccc2N(Cc2ccccc2F)C1=O (stereo not drawn)", "organism": "Arabidopsis thaliana", "test": "root length, petri dish germination", "system": "Col-0, 1/2 MS medium", "setting": "50 µg/mL, 7 days, 22 °C, dark", "quantity": "inhibition", "value": "48%"}
{"note": "Excerpt of the above:"}
{"Structure (SMILES)": "[2H]C([2H])(c1cc(F)c(F)cc1F)n1c(=O)n(Cc2ncn(C)n2)c(=O)[nH]/c1=N\\c1cc2cn(C)nc2cc1Cl", "organism": "Betacoronavirus 1", "test": "viral replication, qPCR", "system": "OC43, human", "quantity": "IC50", "value": "130 nM"}
{"Structure (SMILES)": "CN(C)c1nc(NCc2c(F)cccc2C(F)(F)F)c(/N=N/c2ccc(Cl)cc2)c(N(C)C)n1", "organism": "Plutella xylostella", "test": "leaf dipping", "setting": "200 mg/L, 96 h", "quantity": "mortality", "value": "70 ± 6.2%"}
{"Structure (SMILES)": "C[C@H](NC(=O)Cc1cc(F)cc(F)c1)C(=O)N[C@@H]1C(=O)N(C)c2ccccc2-c2ccccc21", "organism": "dengue virus 2", "test": "viral replication", "system": "Huh-7.5.1 overexpressing SPP", "how to read": "baseline: SPP over control", "quantity": "EC50 fold increase", "value": "> 10 fold"}
{"Structure (SMILES)": "CCOC(=O)C1(Cc2ccc(C#N)cc2F)Oc2cc(F)ccc2N(Cc2ccc(C#N)cc2F)C1=O (stereo not drawn)", "organism": "Arabidopsis thaliana", "test": "stem length, petri dish germination", "system": "Col-0, 1/2 MS medium", "setting": "200 µg/mL, 7 days, 22 °C, dark", "quantity": "inhibition", "value": "42.9%"}
